Experimental data from different studies.
Protocols differ between the studies behind these lines. Several values in a cell are separate wells, animals, samples, runs or records. ± marks the error that the study gave.

Molecule = CN[C@@](C)(C[18F])C(=O)O; target or system = A549 tumour model; test system = host not given, muscle; conditions = 15 min, tumour-bearing; measurement = tracer uptake; value = 1.4 %ID/g
Molecule = CC(C)[C@H](NC(=O)[C@@H](NC(=O)CCOCCOCCNC(=O)CCCc1cn(CC(O)CN2CCN(CC(=O)O)CCN(CC(=O)O)CCN(CC(=O)O)CC2)nn1)[C@@H](C)O)C(=O)N[C@@H](CCCNC(=N)N)C(=O)N[C@H](C(=O)N[C@@H](CO)C(=O)N[C@@H](C)C(=O)N[C@@H](CC(=O)O)C(=O)O)[C@@H](C)O (some centres unmarked); assay = quantitative T1 mapping; test system = athymic nude mouse, male, PC-3 xenograft, tumour; conditions = concentration not given, 30 min post-injection; measurement = tumour concentration; value = 46.7 ± 6.2 µM
Molecule = N=C(N)NCCC[C@@H]1NC(=O)[C@H](CCCCNC(=O)CNC(=O)CNC(=O)CNC(=O)CC[C@H](NC(=O)CCOCCOCCOCCOCCNC(=O)c2ccc(NN)nc2)C(=O)NCC(=O)NCC(=O)NCC(=O)NCCCC[C@@H]2NC(=O)[C@@H](Cc3ccccc3)NC(=O)[C@H](CC(=O)O)NC(=O)CNC(=O)[C@H](CCCNC(=N)N)NC2=O)NC(=O)[C@@H](Cc2ccccc2)NC(=O)[C@H](CC(=O)O)NC(=O)CNC1=O [technetium-99m labelled]; assay = γ-counting; test system = female athymic nude mice, U-87 MG xenograft, intestine; conditions = intravenous, 1 h; measurement = tissue uptake; value = 6.17 ± 1.55 %ID/g
Molecule = CSCC[C@H](NC(=O)[C@H](CC(C)C)NC(=O)[C@H](Cc1c[nH]cn1)NC(=O)CNC(=O)[C@@H](NC(=O)[C@H](C)NC(=O)[C@H](Cc1c[nH]c2ccccc12)NC(=O)[C@H](CCC(N)=O)NC(=O)CCC(=O)NCCOCCOCCNC(=O)CN1CCN(CC(=O)O)CCN(CC(=O)O)CCN(CC(=O)O)CC1)C(C)C)C(N)=O; test system = ICR SCID mouse (PC-3 tumour), urine and bladder contents; conditions = intravenous, 185 kBq, 4 h; measurement = excreted dose; value = 84.8 ± 2.31%
Molecule = COc1cccc2c1C(=O)c1c(O)c3c(c(O)c1C2=O)C[C@@](O)(C(=O)CO)C[C@@H]3O[C@H]1C[C@H](NC(=O)[C@H](CC(C)C)NC(=O)[C@H](C)NC(=O)[C@H](CC(C)C)NC(=O)CCNC(=O)CCC(=O)O)[C@H](O)[C@H](C)O1; test system = mouse, E0771 tumour-bearing, heart; conditions = intravenous, 92 µmol/kg; measurement = AUC; value = 15.1 µM·h
Molecule = CC(=O)N(O)CCCCCNC(=O)CCC(=O)N(O)CCCCCNC(=O)CCC(=O)N(O)CCCCCNC(=S)Nc1ccc(NC(=S)NCCOCCOCCOCCOCCC(=O)N[C@@H](CCC(=O)NCCOCCOCCOCCOCCC(=O)NCCCC[C@@H]2NC(=O)[C@@H](Cc3ccccc3)NC(=O)[C@H](CC(=O)O)NC(=O)CNC(=O)[C@H](CCCNC(=N)N)NC2=O)C(=O)NCCOCCOCCOCCOCCC(=O)NCCCC[C@@H]2NC(=O)[C@@H](Cc3ccccc3)NC(=O)[C@H](CC(=O)O)NC(=O)CNC(=O)[C@H](CCCNC(=N)N)NC2=O)cc1 [zirconium-89 labelled]; test system = athymic nude mice female tumour-bearing, kidneys; conditions = intravenous, dose not given, 4 h, together with: unlabelled c(RGDfK) 300 µg; measurement = tissue uptake; value = 16.7 ± 2.74 %ID/g
Molecule = CCN1C(=CC=CC=CC2=[N+](CCCCCC(=O)NCCCC[C@H](NC(=O)CN3CCN(CC(=O)O)CCN(CC(=O)O)CCN(CC(=O)O)CC3)C(=O)NCC(=O)NCC(=O)N[C@@H](Cc3ccc(O)cc3)C(=O)NCC(=O)N[C@H]3CSSC[C@@H]4NC(=O)CNC(=O)[C@H](C)NC(=O)[C@H](CC(C)C)NC(=O)[C@@H]5CSSC[C@@H](C(=O)NCC(N)=O)NC(=O)[C@H](Cc6ccccc6)NC(=O)CNC(=O)[C@H](CC(N)=O)NC(=O)[C@@H]6CCCN6C(=O)CNC(=O)[C@H](CSSC[C@H](NC(=O)[C@H](CO)NC(=O)[C@H]([C@@H](C)O)NC(=O)[C@@H]6CCCN6C(=O)[C@H](C)NC(=O)[C@H](Cc6c[nH]c7ccccc67)NC(=O)[C@H](CC(=O)O)NC(=O)CNC(=O)[C@H](CCCNC(=N)N)NC(=O)CNC(=O)[C@H](CCC(N)=O)NC(=O)[C@@H]6CCCN6C3=O)C(=O)N[C@@H](CO)C(=O)N[C@@H](CCC(N)=O)C(=O)N[C@@H](CC(=O)O)C(=O)N[C@@H](CO)C(=O)N[C@@H](CC(=O)O)C(=O)N5)NC(=O)[C@H](C(C)C)NC4=O)c3ccc4c(S(=O)(=O)[O-])cc(S(=O)(=O)O)cc4c3C2(C)C)C(C)(C)c2c1ccc1c(S(=O)(=O)O)cc(S(=O)(=O)O)cc21 (single isomer, unassigned) [copper-64 labelled]; assay = microPET; test system = female athymic nude mouse, U-87 MG xenograft, tumour; conditions = intravenous, 100 µCi, 1 h; measurement = tumour uptake; value = 4.27 ± 0.46 %ID/g
Molecule = Cc1ccccc1NC(=O)Nc1ccc(CC(=O)N[C@@H](CCCCNC(=O)/C=C/c2cccnc2)C(=O)N[C@@H](CCCC(=O)O)C(=O)NC2(C(=O)NCCOCCOCCOCCOCC(=O)N[C@@H](CCCCNC(=S)Nc3ccc(C[C@H]4CN(CC(=O)O)CCN(CC(=O)O)CCN4CC(=O)O)cc3)C(N)=O)CCCCC2)cc1 [fluorine-18 labelled]; test system = female C57BL/6 mice, B16-F10 tumour, tumour and blood; conditions = intravenous, 1 h; how to read = relative to: tumour over blood; measurement = tumour-to-blood ratio; value = 2.5 ± 0.4
Molecule = KEAEAAEKAFQEAEQRRKEIEREKAETERQLKLAEAEEKRLAALSEEAKA (colicin E1 fragment 141–190); assay = CD 222/208 nm ratio; test system = peptide, 50 mM sodium phosphate; measurement = helical content; value = 75 ± 2%
Molecule = N=C(N)NCCC[C@@H]1NC(=O)[C@H](CCCCNC(=O)[C@H](CC(=O)O)NC(=O)[C@H](CC(=O)O)NC(=O)[C@H](CC(=O)O)NC(=O)CC[C@H](NC(=O)CCOCCOCCOCCOCCNC(=O)c2ccc(NN)nc2)C(=O)N[C@@H](CC(=O)O)C(=O)N[C@@H](CC(=O)O)C(=O)N[C@@H](CC(=O)O)C(=O)NCCCC[C@@H]2NC(=O)[C@@H](Cc3ccccc3)NC(=O)[C@H](CC(=O)O)NC(=O)CNC(=O)[C@H](CCCNC(=N)N)NC2=O)NC(=O)[C@@H](Cc2ccccc2)NC(=O)[C@H](CC(=O)O)NC(=O)CNC1=O [technetium-99m labelled]; assay = γ-counting; test system = female athymic nude mice, U-87 MG xenograft, brain; conditions = intravenous, 2 h; measurement = tissue uptake; value = 0.11 ± 0.01 %ID/g
Molecule = melittin; assay = CD titration; test system = POPC 50% POPG 50% vesicles; conditions = pH 7.0, 25 °C; measurement = free energy of partitioning; value = -7.5 kcal/mol
Molecule = COc1cccc2c1C(=O)c1c(O)c3c(c(O)c1C2=O)C[C@@](O)(C(=O)CO)C[C@@H]3O[C@H]1C[C@H](NC(=O)[C@@H]2CCCN2C(=O)CNC(=O)[C@H](CC(C)C)NC(=O)[C@H](C)NC(=O)CP(=O)(O)O)[C@H](O)[C@H](C)O1; test system = mouse, E0771 tumour-bearing, liver; conditions = intravenous, 92 µmol/kg; measurement = Tmax; value = 5 min
Molecule = CC(C)C[C@@H]1NC(=O)[C@@H]2CSSC[C@@H](C(=O)NCC(N)=O)NC(=O)[C@H](Cc3ccccc3)NC(=O)CNC(=O)[C@H](CC(N)=O)NC(=O)[C@@H]3CCCN3C(=O)CNC(=O)[C@@H]3CSSC[C@H](NC(=O)[C@H]([C@@H](C)O)NC(=O)[C@H](CC(C)C)NC(=O)[C@@H]4CCCN4C(=O)[C@@H]4CCCN4C(=O)[C@H](CC(N)=O)NC(=O)[C@H](CC(=O)O)NC(=O)CNC(=O)[C@H](CCCNC(=N)N)NC(=O)[C@@H]4CCCN4C(=O)[C@H](CCCNC(=N)N)NC(=O)[C@@H]4CCCN4C(=O)[C@@H](NC(=O)CNC(=O)CN4CCN(CC(=O)O)CCN(CC(=O)O)CCN(CC(=O)O)CC4)CSSC[C@H](NC(=O)CNC(=O)[C@H](C)NC1=O)C(=O)N[C@@H](C(C)C)C(=O)N3)C(=O)N[C@@H](CO)C(=O)N[C@@H](CCC(N)=O)C(=O)N[C@@H](CC(=O)O)C(=O)N[C@@H](CO)C(=O)N[C@@H](CC(=O)O)C(=O)N2 [copper-64 labelled]; assay = PET/CT; test system = transgenic mouse lung tumour, lung tumour; conditions = intravenous, 60 min; measurement = tumour uptake; value = 1.38 %ID/g and 1.3 %ID/g and 1.99 %ID/g and 1.75 %ID/g
Molecule = N=C(N)NCCC[C@@H]1NC(=O)[C@H](CCCCNC(=O)CCOCCOCCOCCOCCNC(=O)CC[C@H](NC(=O)c2ccc(NN)nc2)C(=O)NCCOCCOCCOCCOCCC(=O)NCCCC[C@@H]2NC(=O)[C@@H](Cc3ccccc3)NC(=O)[C@H](CC(=O)O)NC(=O)CNC(=O)[C@H](CCCNC(=N)N)NC2=O)NC(=O)[C@@H](Cc2ccccc2)NC(=O)[C@H](CC(=O)O)NC(=O)CNC1=O [technetium-99m labelled]; test system = athymic nude mouse, U-87 MG xenograft; conditions = 60 min, together with: excess E[c(RGDfK)]2 about 14 mg/kg; measurement = tumour uptake; value = 2.43 ± 0.07 %ID/g

A few entries again:
Molecule = COc1cccc2c1C(=O)c1c(O)c3c(c(O)c1C2=O)C[C@@](O)(C(=O)CO)C[C@@H]3O[C@H]1C[C@H](NC(=O)[C@H](CC(C)C)NC(=O)[C@H](C)NC(=O)[C@H](CC(C)C)NC(=O)CCNC(=O)CCC(=O)O)[C@H](O)[C@H](C)O1; test system = mouse, E0771 tumour-bearing, heart; conditions = intravenous, 92 µmol/kg; measurement = AUC; value = 15.1 µM·h
Molecule = CC(=O)N(O)CCCCCNC(=O)CCC(=O)N(O)CCCCCNC(=O)CCC(=O)N(O)CCCCCNC(=S)Nc1ccc(NC(=S)NCCOCCOCCOCCOCCC(=O)N[C@@H](CCC(=O)NCCOCCOCCOCCOCCC(=O)NCCCC[C@@H]2NC(=O)[C@@H](Cc3ccccc3)NC(=O)[C@H](CC(=O)O)NC(=O)CNC(=O)[C@H](CCCNC(=N)N)NC2=O)C(=O)NCCOCCOCCOCCOCCC(=O)NCCCC[C@@H]2NC(=O)[C@@H](Cc3ccccc3)NC(=O)[C@H](CC(=O)O)NC(=O)CNC(=O)[C@H](CCCNC(=N)N)NC2=O)cc1 [zirconium-89 labelled]; test system = athymic nude mice female tumour-bearing, kidneys; conditions = intravenous, dose not given, 4 h, together with: unlabelled c(RGDfK) 300 µg; measurement = tissue uptake; value = 16.7 ± 2.74 %ID/g
